Measurements from different studies.

CC(C)C[C@H]1NC(=O)[C@@H](CC(C)C)NC(=O)[C@@](C)(NC(=O)[C@@H](CCC(=O)O)NC(=O)[C@@H](Cc2ccc(C(F)(F)F)cc2)NC(=O)[C@@H](CC(N)=O)NC(=O)[C@@]2(C)CCCC=CCCC[C@@](C)(N)C(=O)N[C@H](C)C(=O)N[C@H](Cc3c[nH]c4cc(F)ccc34)C(=O)N[C@H](Cc3ccc(O)cc3)C(=O)N2)CCCC=CCCCCCC[C@](C)(C(N)=O)NC1=O  helicity (circular dichroism; solution; 25 °C): 20%
CC(=O)N[C@@H](CCCCN)C(=O)N[C@@H](CCCCN)C(=O)N[C@@H](CCCNC(=N)N)C(=O)N[C@@H](Cc1ccc(O)cc1)C(=O)N[C@@H](CO)C(=O)N[C@@H](CCCNC(=N)N)C(=O)N[C@@H](CCC(=O)O)C(=O)N[C@@]1(C)CCCC=CCCC[C@@](C)(C(N)=O)NC(=O)CNC(=O)[C@H](CC(C)C)NC(=O)[C@H](CC(C)C)NC1=O  helicity (circular dichroism; solution): 18%
CC[C@H](C)[C@H](NC(=O)[C@H](Cc1ccccc1)NC(=O)[C@H](CC(=O)O)NC(=O)[C@H](CCCN)NC(=O)[C@H](Cc1ccccc1)NC(=O)[C@H](Cc1ccccc1)NC(=O)[C@H](CCCCN)NC(=O)[C@H](CCCCN)NC(=O)[C@H](CC(C)C)NC(=O)[C@H](CCCNC(=N)N)NC(=O)[C@H](CCSC)NC(=O)[C@H](C)N)C(=O)N[C@@H](CC(C)C)C(=O)N[C@@H](CCC(N)=O)C(=O)N[C@@H](CCCNC(=N)N)C(=O)N[C@@H](CCCCN)C(=O)N[C@@H](CCCCN)C(=O)O  helicity (circular dichroism; 20% TFE in PBS; 200 µM, pH 7.4, 25 °C): 21.1%
CC[C@H](C)[C@@H]1NC(=O)[C@H](CCCCN)NC(=O)[C@H](CCCCN)NC(=O)[C@H](Cc2ccc(O)cc2)NC(=O)[C@H](CC(C)C)NC(=O)[C@@H]2CCCN2C(=O)[C@H](C)NC(=O)CNC(=O)CNC(=O)[C@H](CO)NC(=O)CNC(=O)CNC(=O)[C@H](CO)NC(=O)[C@H](CCC(=O)O)NC(=O)[C@H](CC(C)C)NC(=O)[C@H](CC(C)C)NC(=O)[C@H](CCCNC(=N)N)NC(=O)[C@H](CCCCN)NC(=O)[C@H]([C@@H](C)CC)NC(=O)[C@H]([C@@H](C)CC)NC(=O)[C@H](CCCCN)NC(=O)[C@H](CCCCN)NC(=O)[C@H](Cc2ccc(O)cc2)NC(=O)[C@H](CC(C)C)NC(=O)[C@@H]2CCCN2C(=O)[C@H](C)NC(=O)CNC(=O)CNC(=O)[C@H](CO)NC(=O)CNC(=O)CNC(=O)[C@H](CO)NC(=O)[C@H](CCC(=O)O)NC(=O)[C@H](CC(C)C)NC(=O)[C@H](CC(C)C)NC(=O)[C@H](CCCNC(=N)N)NC(=O)[C@H](CCCCN)NC(=O)[C@H]([C@@H](C)CC)NC1=O  helicity (circular dichroism; aqueous NaF phosphate buffer; 50 µM, pH 7.5): 21%
CC(=O)N[C@@H](CC(C)C)C(=O)N[C@H](C(=O)N[C@@H](Cc1ccccc1)C(=O)N[C@@H](CCC(=O)O)C(=O)N[C@@H](CCC(=O)O)C(=O)N[C@@H](Cc1ccc(O)cc1)C(=O)N[C@@H](Cc1c[nH]c2ccccc12)C(=O)N[C@H]1CCCCNC(=O)C[C@@H](C(N)=O)NC(=O)[C@H]([C@@H](C)O)NC(=O)[C@H](CC(C)C)NC(=O)[C@H](CCC(N)=O)NC1=O)[C@@H](C)O  helicity (circular dichroism; phosphate buffer 10 mM; 50 µM, pH 7.4): 60%
CC(=O)N[C@@H](CCCCN)C(=O)N[C@@H](CCCCN)C(=O)N[C@@H](CCCNC(=N)N)C(=O)N[C@@H](Cc1ccc(O)cc1)C(=O)N[C@@H](CO)C(=O)N[C@@H](CCCNC(=N)N)C(=O)N[C@@]1(C)CCCC=CCCC[C@@](C)(C(=O)N[C@@H](Cc2ccccc2)C(N)=O)NC(=O)[C@H](CC(C)C)NC(=O)[C@H](CC(C)C)NC(=O)[C@H](Cc2ccccc2)NC1=O  helicity (circular dichroism; solution): 24%
CC[C@H](C)[C@H](NC(=O)[C@H](CCCNC(=N)N)NC(=O)[C@H](CC(N)=O)NC(=O)[C@H](CCC(=O)O)NC(=O)[C@@H]1CCCN1C(=O)[C@H](CC(=O)O)NC(=O)[C@H](CC(N)=O)NC(=O)[C@H](CC(=O)O)NC(=O)[C@H](CC(=O)O)NC(=O)[C@@H](N)CO)C(=O)N[C@@H](C)C(=O)N[C@@H](CCCCN)C(=O)N[C@@H](CCCCN)C(=O)N[C@@]1(C)CCCC=CCCCCCC[C@](C)(C(=O)N[C@@H](CC(N)=O)C(=O)N[C@@H](CC(C)C)C(=O)N[C@@H](CO)C(=O)O)NC(=O)[C@H](CCCCN)NC(=O)[C@H]([C@@H](C)CC)NC(=O)[C@H](CCC(=O)O)NC(=O)[C@H](CCC(=O)O)NC(=O)[C@H](CC(C)C)NC(=O)[C@H](CC(C)C)NC1=O  helicity (circular dichroism; sodium phosphate, NaF; pH 7.5, 25 °C, isolated peptide): 23.4%
CC[C@H](C)[C@@H]1NC(=O)[C@H](Cc2ccccc2)NC(=O)[C@@H](NC(=O)[C@H](CCCNC(=N)N)NC(=O)[C@H](Cc2ccccc2)NC(=O)[C@H](Cc2ccccc2)NC(=O)[C@H](CCCCN)NC(=O)[C@H](CO)NC(=O)[C@H](CC(C)C)NC(=O)[C@H](CCCNC(=N)N)NC(=O)[C@H](CCSC)NC(=O)[C@H](C)N)CCNC(=O)NCC[C@@H](C(=O)N[C@@H](CCCNC(=N)N)C(=O)N[C@@H](CCCCN)C(=O)N[C@@H](CCCCN)C(=O)O)NC(=O)[C@H](CC(C)C)NC1=O  helicity (circular dichroism; 20% TFE in PBS; 200 µM, pH 7.4, 25 °C): 7.7%
CC[C@H](C)[C@@H]1NC(=O)[C@H](CCCCN)NC(=O)[C@H](CCCCN)NC(=O)[C@H](Cc2ccc(O)cc2)NC(=O)[C@H](CC(C)C)NC(=O)[C@@H]2CCCN2C(=O)[C@H](C)NC(=O)CNC(=O)CNC(=O)[C@H](CO)NC(=O)CNC(=O)CNC(=O)[C@H](CO)NC(=O)[C@H](CCC(=O)O)NC(=O)[C@H](CC(C)C)NC(=O)[C@H](CC(C)C)NC(=O)[C@H](CCCCN)NC(=O)[C@H](CCCCN)NC(=O)[C@H]([C@@H](C)CC)NC(=O)[C@H]([C@@H](C)CC)NC(=O)[C@H](CCCCN)NC(=O)[C@H](CCCCN)NC(=O)[C@H](Cc2ccc(O)cc2)NC(=O)[C@H](CC(C)C)NC(=O)[C@@H]2CCCN2C(=O)[C@H](C)NC(=O)CNC(=O)[C@@H]2CSSC[C@H](NC(=O)[C@H](CC(C)C)NC(=O)[C@H](CCCCN)NC(=O)[C@H](CCCCN)NC(=O)[C@H]([C@@H](C)CC)NC1=O)C(=O)N[C@@H](CCC(N)=O)C(=O)N[C@@H](CC(N)=O)C(=O)NCC(=O)N2  helicity (circular dichroism; aqueous NaF phosphate buffer; 50 µM, pH 7.5): 23%
CC[C@H](C)[C@H](NC(=O)[C@H](Cc1ccccc1)NC(=O)[C@H](CN)NC(=O)[C@H](CCCNC(=N)N)NC(=O)[C@H](Cc1ccccc1)NC(=O)[C@H](Cc1ccccc1)NC(=O)[C@H](CCCCN)NC(=O)[C@H](CO)NC(=O)[C@H](CC(C)C)NC(=O)[C@H](CCCNC(=N)N)NC(=O)[C@H](CCSC)NC(=O)[C@H](C)N)C(=O)N[C@@H](CC(C)C)C(=O)N[C@@H](CN)C(=O)N[C@@H](CCCNC(=N)N)C(=O)N[C@@H](CCCCN)C(=O)N[C@@H](CCCCN)C(=O)O  helicity (circular dichroism; 20% TFE in PBS; 200 µM, pH 7.4, 25 °C): 18.3%
CC[C@H](C)[C@@H]1NC(=O)[C@H](CCCCN)NC(=O)[C@H](CCCCN)NC(=O)[C@H](Cc2ccc(O)cc2)NC(=O)[C@H](CC(C)C)NC(=O)[C@@H]2CCCN2C(=O)[C@H](C)NC(=O)CNC(=O)CNC(=O)[C@H](CO)NC(=O)CNC(=O)CNC(=O)[C@H](CO)NC(=O)[C@H](CCC(=O)O)NC(=O)[C@H](CC(C)C)NC(=O)[C@H](CC(C)C)NC(=O)[C@H](CCCCN)NC(=O)[C@H](CCCCN)NC(=O)[C@H]([C@@H](C)CC)NC(=O)[C@H]([C@@H](C)CC)NC(=O)[C@H](CCCCN)NC(=O)[C@H](CCCCN)NC(=O)[C@H](Cc2ccc(O)cc2)NC(=O)[C@H](CC(C)C)NC(=O)[C@@H]2CCCN2C(=O)[C@H](C)NC(=O)CNC(=O)[C@@H]2CSSC[C@H](NC(=O)[C@H](CC(C)C)NC(=O)[C@H](CCCCN)NC(=O)[C@H](CCCCN)NC(=O)[C@H]([C@@H](C)CC)NC1=O)C(=O)N[C@@H](CCC(=O)O)C(=O)N[C@@H](CO)C(=O)NCC(=O)N2  helicity (circular dichroism; aqueous NaF phosphate buffer; 50 µM, pH 7.5): 21%
CC[C@H](C)[C@@H]1NC(=O)[C@H](Cc2ccccc2)NC(=O)[C@@H](NC(=O)[C@H](CCCNC(=N)N)NC(=O)[C@H](Cc2ccccc2)NC(=O)[C@H](Cc2ccccc2)NC(=O)[C@H](CCCCN)NC(=O)[C@H](CO)NC(=O)[C@H](CC(C)C)NC(=O)[C@H](CCCNC(=N)N)NC(=O)[C@H](CCSC)NC(=O)[C@H](C)N)CCNC(=O)NCCC[C@@H](C(=O)N[C@@H](CCCNC(=N)N)C(=O)N[C@@H](CCCCN)C(=O)N[C@@H](CCCCN)C(=O)O)NC(=O)[C@H](CC(C)C)NC1=O  helicity (circular dichroism; 20% TFE in PBS; 200 µM, pH 7.4, 25 °C): 4%
CC[C@H](C)[C@@H]1NC(=O)[C@H](CCCCN)NC(=O)[C@H](CCCCN)NC(=O)[C@H](Cc2ccc(O)cc2)NC(=O)[C@H](CC(C)C)NC(=O)[C@@H]2CCCN2C(=O)[C@H](C)NC(=O)CNC(=O)CNC(=O)[C@H](CO)NC(=O)CNC(=O)CNC(=O)[C@H](CO)NC(=O)[C@H](CCCCN)NC(=O)[C@H](CC(C)C)NC(=O)[C@H](CC(C)C)NC(=O)[C@H](CCCCN)NC(=O)[C@H](CCCCN)NC(=O)[C@H]([C@@H](C)CC)NC(=O)[C@H]([C@@H](C)CC)NC(=O)[C@H](CCCCN)NC(=O)[C@H](CCCCN)NC(=O)[C@H](Cc2ccc(O)cc2)NC(=O)[C@H](CC(C)C)NC(=O)[C@@H]2CCCN2C(=O)[C@H](C)NC(=O)CNC(=O)CNC(=O)[C@H](CO)NC(=O)CNC(=O)CNC(=O)[C@H](CO)NC(=O)[C@H](CCC(=O)O)NC(=O)[C@H](CC(C)C)NC(=O)[C@H](CC(C)C)NC(=O)[C@H](CCCCN)NC(=O)[C@H](CCCCN)NC(=O)[C@H]([C@@H](C)CC)NC1=O  helicity (circular dichroism; aqueous NaF phosphate buffer; 50 µM, pH 7.5): 24%
CC[C@H](C)[C@H](NC(=O)[C@H](CCCNC(=N)N)NC(=O)[C@@H](NC(=O)CNC(C)=O)[C@@H](C)O)C(=O)N[C@H](C(=O)N[C@@H](Cc1ccc(O)cc1)C(=O)N[C@@H](CC(=O)O)C(=O)N[C@@H](CCCNC(=N)N)C(=O)N[C@@]1(C)CCCC=CCCC[C@@](C)(C(=O)N[C@@H](CS)C(=O)N[C@@H](CCCNC(=N)N)C(=O)N[C@@H](CC(N)=O)C(N)=O)NC(=O)[C@H](CCSC)NC(=O)[C@H](CC(C)C)NC(=O)[C@H](Cc2ccccc2)NC1=O)[C@@H](C)CC  helicity (CD spectroscopy; sodium phosphate buffer; 25 to 100 µM, pH 7.4, 25 °C): 44%

Excerpt of the above:
CC[C@H](C)[C@@H]1NC(=O)[C@H](Cc2ccccc2)NC(=O)[C@@H](NC(=O)[C@H](CCCNC(=N)N)NC(=O)[C@H](Cc2ccccc2)NC(=O)[C@H](Cc2ccccc2)NC(=O)[C@H](CCCCN)NC(=O)[C@H](CO)NC(=O)[C@H](CC(C)C)NC(=O)[C@H](CCCNC(=N)N)NC(=O)[C@H](CCSC)NC(=O)[C@H](C)N)CCNC(=O)NCCC[C@@H](C(=O)N[C@@H](CCCNC(=N)N)C(=O)N[C@@H](CCCCN)C(=O)N[C@@H](CCCCN)C(=O)O)NC(=O)[C@H](CC(C)C)NC1=O  helicity (circular dichroism; 20% TFE in PBS; 200 µM, pH 7.4, 25 °C): 4%
